Assay results of several laboratories.
Numbered parts are unrelated; each lists some results of a single study. Positions count from the first letter of the parent shown.

Series 1 — method: RNA Bind-n-Seq; molecule type: RNA; sample: in vitro; concentration: 365 nM; reference: no-protein control; reading: higher = stronger binding
Target: RNA binding protein fox-1 homolog 2, RRM domain, GST-SBP tag (RBFOX2, Homo sapiens, UniProt O43251-10, residues 100-194)
Setting: natural RNA segment, single round, ends assumed
Shared flanks, not repeated: GGGAGUUCUACAGUCCGACGAUC … UGGAAUUCUCGGGUGCCAA
Target sequence (chain): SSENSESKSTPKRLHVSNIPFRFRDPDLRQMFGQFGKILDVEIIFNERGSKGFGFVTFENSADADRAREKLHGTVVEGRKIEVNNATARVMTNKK
Strand | RBNS enrichment (R)
GGUAAUAAAUAGGUUACUUACCAUCAUAUGUUCAUAUAGAUGAAACUAAUUUUUGGCUUAAGUCAGAACAACUGGCCAAAAUUGAAGUCAUAUUUGAGGGGGGAAAUGGC | 0.637
UGCAUUCAAGACACUUGCAAAUGUCUUUUUCUAAGCAGUAGUUAGAAAGAGCUCAAUUAUAGUAUUAACACCUUAAAGCCAAAACAUUUGUUCAACACAAACUACCAUCA | 0.501
AAUAAAAUUUACUUCUGAUGUUUUAAUUAAAAUGUUUGCCACAUUAACUUUUCUGAUGCCUUAAAAGUGAACUUCUUUAAAGAACCUUUGUGCUAUUUUAUCACAGGCUU | 0.427
CUUUCCAAAUGAAUGUGAGGAGUUGCUUUCACUUCAAGACUGUCCUUCUUUUCAGUAAAACUUUAGGAGAUGUUAUGGGGAAAGGGAGGGAACAGAAAUCCUUGAACUUU | 0.612
GAUGGGUGGGGAAGAGGUUGCUCUUUACUCUCCAUCUCUGACACAAAGUGUAGCUGCUAGAGGGAUGACCUCUCCUUCAACUUGUCCUGAAGCACUUACAUUUAGUUGUU | 0.297
UUUCCCAAAGUUUCUGACUUUGUGGUUUACCCCCUUCACCUUCCAGGGACGCAGUUGUUACGAGGUUAGACGUGGCAGCUCUGUGCAGUGUUUGAGCCUACAGUGGGAUA | 0.381
GAUUGAUGCGCACCAGUCUUGAGGAAACGAUCUCCCUAUUCCCUUACCCUGUUACUCAGCCACGCCGUGUGUAGGCUUAGCCUCAGGUGGCAGAUGUUUGAGGAAAGGAA | 0.427
GGGCAUACCACAUAACUAGAUGCAAGAACCUUGGGGUAGCAUUCUGUAUUUUUAAAUAUGUUUUAAAAGAACUCAGGAACAAUUUACGUCUCUGUAUCUUUUUUUUACUA | 0.535

Series 2 — method: DHFR PCA, deep sequencing; sample: yeast; added: (+)-ABA 0.032 µM; reference: wild-type fitted maximum; reading: higher = stronger binding
Target: ABI1, truncated, D143A, DHFR fusion (Arabidopsis thaliana)
Setting: methotrexate growth selection, single substitutions
Starting sequence: PYL1, truncated, DHFR fusion (Arabidopsis thaliana); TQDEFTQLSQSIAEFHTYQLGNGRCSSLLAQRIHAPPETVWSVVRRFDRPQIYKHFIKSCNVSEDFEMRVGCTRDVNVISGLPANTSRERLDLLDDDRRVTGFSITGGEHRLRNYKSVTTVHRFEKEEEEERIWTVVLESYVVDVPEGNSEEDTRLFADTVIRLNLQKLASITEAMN
Change | relative binding score [%]
E147I | 7.91
G21N | 6.15
V136A | 3.95
L169K | -3.8
L166R | 4.03
S26C | 11.2
E64C | 7.92
T6E | 45.3
D3H | 20.3
N77D | 30.5
I79H | 15.3
K126R | 47.8
E174I | -4.85
E152Y | 2.51
I79N | 0.46
E89A | -2.38
H122L | 1.88
S63D | 37.1
R113F | 0.749
Q51M | -4.36
E67S | 9.68
R46E | 7.88
T173S | 16.8
E130R | 24.6

Series 3 — target: CCND3, cyclin fold, Cln2 fusion (human); method: yeast growth competition, sequencing; sample: yeast; setting: weak parent motif; reference: not given; reading: higher = stronger binding
Starting sequence: WEE2 docking peptide (human); KELRQKLNFSYCE
Change | normalised enrichment score
KEARQKLNFSYCE [L3A] | -0.0132
KELRQKLNASYCE [F9A] | 0.432
KELRAKLNFSYCE [Q5A] | 0.0143
KELRQKLNFSYCA [E13A] | 0.287
KELRQALNFSYCE [K6A] | 0.0031
KELRQKLAFSYCE [N8A] | 0.219
KELRQKANFSYCE [L7A] | -0.0958

Series 4 — method: RNAcompete; molecule type: RNA; sample: in vitro; concentration: 20 nM; setting: 7-mer, probes averaged, single round; reference: mean of 7-mers; reading: higher = stronger binding
Target: PABPC1L2, full length, GST fusion (mouse, UniProt A0ABA7IW68)
Construct (chain): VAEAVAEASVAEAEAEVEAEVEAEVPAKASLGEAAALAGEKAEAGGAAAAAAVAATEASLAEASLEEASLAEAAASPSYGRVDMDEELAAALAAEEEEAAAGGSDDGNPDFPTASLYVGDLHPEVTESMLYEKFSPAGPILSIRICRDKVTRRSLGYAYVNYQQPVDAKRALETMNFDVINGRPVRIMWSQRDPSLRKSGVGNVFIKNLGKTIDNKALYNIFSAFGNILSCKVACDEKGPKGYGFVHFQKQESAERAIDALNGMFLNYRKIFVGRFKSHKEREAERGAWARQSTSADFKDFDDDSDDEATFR
Strand | 7-mer Z-score
AGACGUU | -0.34
CUACCCC | -0.371
UGAAGAU | 0.0207
AUGGAAA | 0.742
GAUCUGU | -0.322
GCGUCCU | -0.335
GAUGUGG | -0.0192
AGUUAGA | -0.0428
GGGGGGA | 0.321
AUUCGAC | -0.188
CUGAAGC | -0.0573
GUUAAUA | 0.00979
UUUUGAC | -0.103
AAGAUCG | 0.456
UGGGGAU | 0.316
CGGUAUG | 0.0243
AGGUGUU | -0.235
CUCAUUG | -0.186
GUGCGCG | -0.157
UCAUACU | -0.324
GUGAUCC | -0.166
UCUACAU | -0.34
GUAGUCC | -0.262
CGGAAGC | -0.209
UGGAACC | 0.075

A few entries again (series 2):
Change | relative binding score [%]
E64C | 7.92
T6E | 45.3
D3H | 20.3
